Published values collected from several papers.
Lines come from different studies, so protocols differ. “And” joins repeats or separate records; there may be more than shown. ± gives the spread as reported.
Ugcg: Ceramide glucosyltransferase (Ugcg, Mus musculus, UniProt O88693)
UniProt O88693, sequence (whole entry, looked up): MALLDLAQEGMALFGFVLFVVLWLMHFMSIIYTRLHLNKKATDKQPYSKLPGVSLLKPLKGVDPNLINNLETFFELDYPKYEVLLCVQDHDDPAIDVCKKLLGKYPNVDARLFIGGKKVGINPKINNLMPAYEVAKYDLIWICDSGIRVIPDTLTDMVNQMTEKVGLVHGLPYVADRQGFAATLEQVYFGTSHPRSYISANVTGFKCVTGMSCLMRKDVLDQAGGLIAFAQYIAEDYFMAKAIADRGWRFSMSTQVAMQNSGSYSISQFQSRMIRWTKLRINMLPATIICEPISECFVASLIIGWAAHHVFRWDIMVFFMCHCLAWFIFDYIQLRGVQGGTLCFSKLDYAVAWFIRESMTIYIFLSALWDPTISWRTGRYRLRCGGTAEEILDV

Cc1ccc2nc(C)n(/N=C/c3ccc(C(=O)O)cc3)c(=O)c2c1
viability (LoVo; cell growth or viability, LDH; 200 µg/mL, 24 h): 32.5%

Cc1ncsc1-c1ccc(C(C)NC(=O)C2CC(O)CN2C(=O)C(NC(=O)CCCCCCCCCCN2CCCC(Nc3ncc(Cl)c(Nc4ccccc4S(=O)(=O)C(C)C)n3)C2)C(C)(C)C)cc1 (centres unmarked)
log2 fold change (22Rv1; RNA-seq, item: RHPN1-AS1; concentration not given; relative to: DMSO): -2.39

CN(C)c1cccc(-c2ccc(C3CCCCC3)cc2)c1
hepatic clearance (liver microsome stability; cynomolgus liver microsomes; 1 µM): 34 mL/min/kg

CCCCCOCCCCCN1C[C@H](O)[C@@H](O)[C@H](O)[C@@H]1CO
IC50 (Ugcg; enzyme activity, inhibitor, fluorescence): 0.15 µM

C=CCc1c(O)cc2c(c1O)C(=O)CC(c1ccc(O)cc1)O2 (centres unmarked)
inhibition (HeLa; cell growth or viability, MTT; 50 µM, 48 h): 15.1%

COC1CCN(C(=O)/C=C/c2nn(Cc3cccc(C(F)(F)F)c3)c3nc(N4CCOCC4)ncc23)CC1
EC50 (FLO-1; cell growth or viability, resazurin; 5 days): > 30 µM

CC12CCCC(NS(=O)(=O)c3ccccc3N)(C1)C1CC(C)(C)C1CC2 (centres unmarked)
inhibition (HT-29; cell growth or viability, CCK-8; 10 µM): < 50%

O=C(CC(F)(F)F)Nc1ccc([C@H]2[C@@H](F)[C@@H](F)C[C@@H](F)[C@H]2F)cc1
hepatic clearance (liver microsome stability; human liver microsomes; 1 µM, without NADPH): 6 mL/min/kg

CCN(CC)CC(=O)Nc1cccc(-n2cc(-c3ccc4ccc(-c5cn(-c6cccc(NC(=O)CN(CC)CC)c6)nn5)cc4c3)nn2)c1
fold regulation (RCC4; PCR angiogenesis array, item: HPSE; 5 x IC50, 6 h, normoxia; relative to: untreated): -1.34

CNS(=O)(=O)Nc1nccc(Cc2c(C)c3ccc(Oc4ncccc4F)cc3oc2=O)c1F
IC50 (Kasumi-2; cell viability, CellTiter-Glo; 7 days): 0.00195 µM

CC[C@H](C)[C@H](NC(=O)[C@H](CCCC(=O)O)NC(=O)[C@H](CC(=O)O)NC(C)=O)C(=O)N[C@@H](CC(=O)O)C(=O)COC(=O)c1c(C)cccc1C
cell lysis (THP-1 cells, LPS-primed; pyroptosis, LDH release; 25 µM, LPS 1 µg/mL, 4 h, together with: nigericin 5 µM, 2 h): 91.4%

CC1(C)OB(c2ccc(COC(=O)N(Cc3cccc(CN4CCCCC4)c3)[c-]3cccc3)cc2)OC1(C)C.[Fe+2].c1cc[cH-]c1
mRNA level (A2780; qPCR, item: CHOP; 3 µM, 24 h, unit not given; relative to: untreated): 284 ± 34.1

OC[C@H]1[C@@H](O)[C@H](O)[C@@H](O)CN1CCCCCOCC12CC3CC(C1)CC(COCCCCCN1C[C@H](O)[C@@H](O)[C@H](O)[C@@H]1CO)(C3)C2
IC50 (Ugcg; enzyme activity, inhibitor, fluorescence): 10 µM

CC12CCCC(n3cc(C(=O)N4CC(N)C4)nn3)(C1)C1CC(C)(C)C1CC2 (centres unmarked)
inhibition (HT-29; cell growth or viability, CCK-8; 10 µM): 75.7%

C[C@@H]1CC[C@@H]([C@@](O)(COCc2ccccc2)Cn2cnc3ccccc32)[C@H](OCc2ccccc2)C1
inhibition (A2780; cell growth or viability, MTT; 10 µM, 72 h): 83%

CCN(C(=O)c1cc(F)ccc1Oc1nncnc1N1CCC2(C1)CN([C@H](CCCN(C)CCOC)C(C)C)C2)C(C)C
GI50 (MG-63; cell growth or viability; 72 h): > 10 µM

CN1CCCNC(=O)c2cccc(c2)C(=O)NCCCN(C)CCCNc2cccc3c2C(=O)c2cccc(c2C3=O)NCCC1
log2 fold change (SAS; RNA-Seq, item: CETN3 mRNA; 1 µM, 6 h; relative to: untreated cells): 1.17

O=S(=O)(N[C@H]1CCO[C@@H](C2c3ccc(F)cc3CCc3cc(F)ccc32)C1)c1ccc(OC(F)(F)F)cc1
cleaved caspase 9 level (D425; immunoblot; concentration not given, 24 h): increased

Cc1cc(Cl)cc(-c2ccnc3cc(CN4C(=O)C5C(C4=O)C5(C)C)sc23)c1C[C@@H]1CNCCO1 (some centres unmarked)
apoptotic cells (early plus late) (CHP-212 resistant cells (pooled); annexin V-PI flow cytometry; 0.1 µM, 48 h): 6.69% and 13% and 15.5%

O=C(C[Se]C(=O)c1ccccc1Nc1ccccc1)Nc1cccc(C(F)(F)F)c1
TGI (NCI60 NSCLC subpanel mean; cell growth): 3.21 µM

For quick reference, copied from above:
CC[C@H](C)[C@H](NC(=O)[C@H](CCCC(=O)O)NC(=O)[C@H](CC(=O)O)NC(C)=O)C(=O)N[C@@H](CC(=O)O)C(=O)COC(=O)c1c(C)cccc1C
cell lysis (THP-1 cells, LPS-primed; pyroptosis, LDH release; 25 µM, LPS 1 µg/mL, 4 h, together with: nigericin 5 µM, 2 h): 91.4%

CCN(CC)CC(=O)Nc1cccc(-n2cc(-c3ccc4ccc(-c5cn(-c6cccc(NC(=O)CN(CC)CC)c6)nn5)cc4c3)nn2)c1
fold regulation (RCC4; PCR angiogenesis array, item: HPSE; 5 x IC50, 6 h, normoxia; relative to: untreated): -1.34
